{"data": "Results pooled from the literature", "note": "Protocols differ between the studies behind these lines.", "UniProt P21397, sequence (whole entry, looked up)": "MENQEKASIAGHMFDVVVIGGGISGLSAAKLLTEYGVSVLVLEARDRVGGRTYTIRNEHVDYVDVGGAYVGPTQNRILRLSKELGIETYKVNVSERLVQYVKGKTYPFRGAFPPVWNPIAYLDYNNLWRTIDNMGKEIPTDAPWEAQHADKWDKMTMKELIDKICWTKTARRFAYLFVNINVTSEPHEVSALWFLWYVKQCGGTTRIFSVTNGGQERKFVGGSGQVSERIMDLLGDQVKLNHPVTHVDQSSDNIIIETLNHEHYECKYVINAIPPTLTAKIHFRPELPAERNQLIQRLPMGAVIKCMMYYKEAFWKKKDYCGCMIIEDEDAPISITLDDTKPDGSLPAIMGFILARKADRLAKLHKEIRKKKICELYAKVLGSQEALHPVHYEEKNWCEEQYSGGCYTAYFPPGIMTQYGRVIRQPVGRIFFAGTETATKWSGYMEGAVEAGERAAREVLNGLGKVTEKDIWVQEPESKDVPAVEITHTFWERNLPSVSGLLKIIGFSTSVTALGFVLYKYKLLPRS", "UniProt Q9UBF8, sequence (whole entry, looked up)": "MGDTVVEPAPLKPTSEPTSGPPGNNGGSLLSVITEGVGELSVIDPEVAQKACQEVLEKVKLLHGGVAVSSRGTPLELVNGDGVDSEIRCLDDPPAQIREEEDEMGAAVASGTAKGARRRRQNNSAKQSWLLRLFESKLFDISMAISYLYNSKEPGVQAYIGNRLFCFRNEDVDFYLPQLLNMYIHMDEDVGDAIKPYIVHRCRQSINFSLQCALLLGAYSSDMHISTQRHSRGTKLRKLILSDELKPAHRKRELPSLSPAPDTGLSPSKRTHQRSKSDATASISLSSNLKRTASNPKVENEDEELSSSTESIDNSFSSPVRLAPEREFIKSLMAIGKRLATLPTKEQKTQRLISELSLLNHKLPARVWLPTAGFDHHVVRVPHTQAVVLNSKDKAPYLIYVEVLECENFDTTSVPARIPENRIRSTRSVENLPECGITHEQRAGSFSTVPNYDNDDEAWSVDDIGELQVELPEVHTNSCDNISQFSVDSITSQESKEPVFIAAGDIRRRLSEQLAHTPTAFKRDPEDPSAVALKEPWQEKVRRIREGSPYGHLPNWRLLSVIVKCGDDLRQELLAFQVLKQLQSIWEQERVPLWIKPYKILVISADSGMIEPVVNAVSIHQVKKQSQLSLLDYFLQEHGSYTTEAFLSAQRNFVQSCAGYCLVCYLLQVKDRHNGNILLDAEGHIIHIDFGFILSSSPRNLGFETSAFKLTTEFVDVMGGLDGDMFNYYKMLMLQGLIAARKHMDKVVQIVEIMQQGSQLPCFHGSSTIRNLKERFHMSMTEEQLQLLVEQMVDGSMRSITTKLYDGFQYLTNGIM", "UniProt Q9NRP7, sequence (whole entry, looked up)": "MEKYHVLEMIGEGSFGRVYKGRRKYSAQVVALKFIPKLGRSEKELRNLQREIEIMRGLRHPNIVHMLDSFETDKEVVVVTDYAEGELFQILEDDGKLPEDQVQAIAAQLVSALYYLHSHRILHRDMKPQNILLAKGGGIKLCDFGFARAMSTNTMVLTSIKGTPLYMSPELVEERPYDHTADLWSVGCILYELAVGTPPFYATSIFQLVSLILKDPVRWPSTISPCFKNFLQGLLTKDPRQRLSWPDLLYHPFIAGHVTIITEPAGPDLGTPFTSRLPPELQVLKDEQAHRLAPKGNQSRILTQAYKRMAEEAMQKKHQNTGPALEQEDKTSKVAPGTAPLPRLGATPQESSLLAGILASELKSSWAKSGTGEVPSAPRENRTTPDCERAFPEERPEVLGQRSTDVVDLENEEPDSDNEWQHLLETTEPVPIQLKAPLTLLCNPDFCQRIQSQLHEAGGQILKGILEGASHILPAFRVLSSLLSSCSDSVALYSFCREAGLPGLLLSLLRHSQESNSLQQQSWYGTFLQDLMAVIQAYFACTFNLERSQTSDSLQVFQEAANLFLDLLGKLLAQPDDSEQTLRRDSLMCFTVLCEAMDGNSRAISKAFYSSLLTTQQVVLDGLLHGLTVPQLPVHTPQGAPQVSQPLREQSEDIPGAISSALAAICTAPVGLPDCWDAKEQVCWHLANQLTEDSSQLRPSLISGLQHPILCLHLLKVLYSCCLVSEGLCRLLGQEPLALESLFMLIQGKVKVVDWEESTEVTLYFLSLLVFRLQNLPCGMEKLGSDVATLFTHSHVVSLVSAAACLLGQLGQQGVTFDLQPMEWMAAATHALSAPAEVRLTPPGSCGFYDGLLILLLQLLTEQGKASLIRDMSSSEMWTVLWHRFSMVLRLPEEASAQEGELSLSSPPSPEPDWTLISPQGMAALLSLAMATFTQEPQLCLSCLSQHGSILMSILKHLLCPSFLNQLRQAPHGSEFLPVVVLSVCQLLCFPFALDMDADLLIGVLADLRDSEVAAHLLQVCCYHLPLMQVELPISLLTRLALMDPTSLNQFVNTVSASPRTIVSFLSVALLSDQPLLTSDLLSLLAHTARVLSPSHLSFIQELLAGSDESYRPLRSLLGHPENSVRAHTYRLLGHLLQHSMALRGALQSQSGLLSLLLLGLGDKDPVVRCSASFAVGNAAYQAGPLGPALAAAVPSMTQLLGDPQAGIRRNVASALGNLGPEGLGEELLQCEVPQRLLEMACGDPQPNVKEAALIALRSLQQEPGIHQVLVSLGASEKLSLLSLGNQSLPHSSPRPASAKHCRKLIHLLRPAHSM", "UniProt Q99755, sequence (whole entry, looked up)": "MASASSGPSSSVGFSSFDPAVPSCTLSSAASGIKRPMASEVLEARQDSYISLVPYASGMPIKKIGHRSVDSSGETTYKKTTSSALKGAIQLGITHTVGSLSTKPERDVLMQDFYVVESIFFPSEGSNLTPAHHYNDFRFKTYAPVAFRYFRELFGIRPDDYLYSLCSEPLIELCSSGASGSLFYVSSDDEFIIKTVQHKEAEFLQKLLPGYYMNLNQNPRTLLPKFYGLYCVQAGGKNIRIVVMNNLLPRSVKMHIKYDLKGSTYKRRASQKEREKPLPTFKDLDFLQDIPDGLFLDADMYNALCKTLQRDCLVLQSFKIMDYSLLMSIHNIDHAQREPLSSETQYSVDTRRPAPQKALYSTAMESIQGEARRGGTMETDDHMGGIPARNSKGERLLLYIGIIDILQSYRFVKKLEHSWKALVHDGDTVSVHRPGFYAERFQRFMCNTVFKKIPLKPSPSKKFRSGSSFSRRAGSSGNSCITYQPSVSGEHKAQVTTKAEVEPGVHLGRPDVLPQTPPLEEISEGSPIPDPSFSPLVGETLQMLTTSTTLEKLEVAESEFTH", "UniProt Q8NEV4, sequence (whole entry, looked up)": "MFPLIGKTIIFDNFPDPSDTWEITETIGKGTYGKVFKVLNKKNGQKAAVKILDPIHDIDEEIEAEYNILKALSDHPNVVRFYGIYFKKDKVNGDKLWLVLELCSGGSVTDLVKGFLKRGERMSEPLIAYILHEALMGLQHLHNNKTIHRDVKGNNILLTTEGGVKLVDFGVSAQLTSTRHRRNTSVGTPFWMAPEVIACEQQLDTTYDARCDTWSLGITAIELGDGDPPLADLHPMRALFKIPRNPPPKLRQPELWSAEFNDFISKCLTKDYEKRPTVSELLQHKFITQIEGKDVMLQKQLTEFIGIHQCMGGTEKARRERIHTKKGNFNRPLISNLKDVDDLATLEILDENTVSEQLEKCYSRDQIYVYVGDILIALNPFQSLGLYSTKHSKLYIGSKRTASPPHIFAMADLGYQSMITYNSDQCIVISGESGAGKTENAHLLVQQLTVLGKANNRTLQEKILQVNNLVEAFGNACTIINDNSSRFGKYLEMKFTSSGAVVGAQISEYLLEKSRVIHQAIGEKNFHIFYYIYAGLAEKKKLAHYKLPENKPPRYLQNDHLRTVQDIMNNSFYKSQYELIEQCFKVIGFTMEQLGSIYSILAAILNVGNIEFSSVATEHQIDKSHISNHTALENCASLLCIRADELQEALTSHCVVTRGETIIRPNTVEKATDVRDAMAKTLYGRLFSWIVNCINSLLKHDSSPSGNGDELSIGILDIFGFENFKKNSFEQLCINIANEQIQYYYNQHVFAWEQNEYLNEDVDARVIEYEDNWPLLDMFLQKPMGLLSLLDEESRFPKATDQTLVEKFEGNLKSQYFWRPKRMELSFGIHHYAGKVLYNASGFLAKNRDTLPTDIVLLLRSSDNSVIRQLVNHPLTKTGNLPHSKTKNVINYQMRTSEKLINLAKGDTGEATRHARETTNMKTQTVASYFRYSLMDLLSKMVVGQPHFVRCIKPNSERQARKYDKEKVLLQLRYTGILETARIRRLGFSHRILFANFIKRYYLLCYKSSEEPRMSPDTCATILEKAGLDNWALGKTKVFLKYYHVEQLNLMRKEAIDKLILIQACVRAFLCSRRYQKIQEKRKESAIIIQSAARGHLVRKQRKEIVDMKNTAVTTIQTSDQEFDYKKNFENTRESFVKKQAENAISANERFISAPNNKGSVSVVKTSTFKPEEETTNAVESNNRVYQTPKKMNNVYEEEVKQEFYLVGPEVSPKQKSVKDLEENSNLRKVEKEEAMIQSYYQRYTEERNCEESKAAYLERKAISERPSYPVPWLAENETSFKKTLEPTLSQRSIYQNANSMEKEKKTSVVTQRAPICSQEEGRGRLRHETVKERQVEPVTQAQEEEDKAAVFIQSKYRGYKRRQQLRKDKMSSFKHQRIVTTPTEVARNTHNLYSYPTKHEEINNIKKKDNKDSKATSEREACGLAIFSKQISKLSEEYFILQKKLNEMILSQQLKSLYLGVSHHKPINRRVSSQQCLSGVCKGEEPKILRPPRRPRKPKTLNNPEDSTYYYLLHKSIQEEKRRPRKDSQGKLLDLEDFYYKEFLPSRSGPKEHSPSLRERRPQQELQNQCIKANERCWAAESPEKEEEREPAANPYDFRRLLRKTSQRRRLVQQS"}
{"Structure (SMILES)": "COc1ncccc1-c1cnn2ccc(N3CCN(C(=O)OC(C)C)CC3)nc12", "target or system": "PIP5K1A (Homo sapiens, UniProt Q99755)", "assay": "binding, competition with immobilised ligand", "conditions": "1 µM", "measurement": "remaining binding", "value": "100%"}
{"Structure (SMILES)": "CCCCC1CNC2CCc3ccc(OC)cc3C12.Cl (racemic)", "target or system": "MDCK-MDR1", "test system": "Caco-2", "measurement": "Papp A→B", "value": "29.2 ×10⁻⁶ cm/s"}
{"Structure (SMILES)": "C=C(C)[C@]12C[C@@H](C)[C@@]34OC(c5ccccc5)(O[C@@H]1[C@@H]3[C@H](O)[C@](O)(COC(=O)c1ccccc1)[C@@H](O)[C@@]1(O)[C@H]4C[C@H](C)[C@@H]1O)O2", "target or system": "MT4", "assay": "cell growth or viability", "measurement": "IC50", "value": "19.1 µM"}
{"Structure (SMILES)": "CCC[C@H](NC(=O)/C=C/c1ccccc1)C(=O)N[C@@H](CC(C)C)C(=O)N[C@H](C=O)C[C@@H]1CCCNC1=O", "target or system": "A549", "assay": "cell growth or viability, MTT", "conditions": "24 h", "measurement": "CC50", "value": "> 100 µM"}
{"Structure (SMILES)": "CCOC(=O)C1=C(CN2CCC[C@H]2C(=O)Nc2ccc(B(O)O)cc2)NC(c2nccs2)=N[C@@H]1c1ccc(F)cc1Br", "target or system": "HepDES19", "assay": "cell growth or viability, MTS", "conditions": "72 h", "measurement": "CC50", "value": "35.6 µM"}
{"Structure (SMILES)": "N.N.[Cl][Pt][Cl]", "target or system": "Z-138", "assay": "cell growth or viability, ATP luminescence", "conditions": "72 h", "measurement": "IC50", "value": "0.76 µM"}
{"Structure (SMILES)": "OC(c1ccc(F)cc1)C(F)(F)CCN1CCC(O)(c2ccc(Cl)cc2)CC1 (racemic)", "target or system": "MDR1", "test system": "MDCK-MDR1", "conditions": "2 h", "measurement": "Papp B→A", "value": "7.84 ×10⁻⁶ cm/s"}
{"Structure (SMILES)": "CCOC(=O)C1=C(CN2CCC(C(=O)Nc3ccccc3B3OC(C)(C)C(C)(C)O3)C2)NC(c2nccs2)=NC1c1ccc(F)cc1Br (stereo not drawn)", "target or system": "HepDES19", "assay": "cell growth or viability, MTS", "conditions": "72 h", "measurement": "CC50", "value": "> 50 µM"}
{"Structure (SMILES)": "Nc1ncc(-c2nc(N3CCOCC3)nc(N3CCOCC3)n2)c(C(F)F)n1", "target or system": "STK36 (Homo sapiens, UniProt Q9NRP7)", "assay": "binding, competition with immobilised ligand", "conditions": "10 µM", "measurement": "remaining binding", "value": "99%"}
{"Structure (SMILES)": "CC(C)[C@H](NC(=O)/C=C/c1ccccc1)C(=O)N[C@H](C=O)C[C@@H]1CCCNC1=O", "target or system": "A549", "assay": "cell growth or viability, MTT", "conditions": "24 h", "measurement": "CC50", "value": "> 100 µM"}
{"Structure (SMILES)": "Cc1nn(C)cc1-c1nc2c(N3CCN(Cc4ccc(Cl)cc4)CC3)c(Cl)cnc2[nH]1", "target or system": "Myosin-IIIa (MYO3A, Homo sapiens, UniProt Q8NEV4)", "assay": "binding, competition with immobilised ligand", "conditions": "1 µM", "measurement": "remaining binding", "value": "100%"}
{"Structure (SMILES)": "[2H]c1c([2H])c([C@]2([2H])CCCN2C(=O)C(C)(C)Oc2ccc3cn[nH]c3c2)c([2H])c([2H])c1C([2H])([2H])[2H]", "target or system": "PI4KB (Homo sapiens, UniProt Q9UBF8)", "assay": "binding, competition with immobilised ligand", "conditions": "1 µM", "measurement": "remaining binding", "value": "92%"}
{"Structure (SMILES)": "CCCC[C@H](NC(=O)/C=C/c1ccccc1)C(=O)N[C@H](C=O)C[C@@H]1CCNC1=O", "target or system": "A549", "assay": "cell growth or viability, MTT", "conditions": "24 h", "measurement": "CC50", "value": "> 100 µM"}
{"Structure (SMILES)": "CN[C@@H]1C[C@H]2O[C@@](C)([C@@H]1OC)n1c3ccccc3c3c4c(c5c6ccccc6n2c5c31)C(=O)NC4", "target or system": "NCI-H1975", "assay": "cell growth or viability, MTT", "conditions": "6.3 µg", "measurement": "viability", "value": "49.8%"}
{"Structure (SMILES)": "CCOC(=O)C1=C(CN2CCC[C@H]2C(=O)Nc2cccc(B(O)O)c2)NC(c2nccs2)=N[C@H]1c1ccc(F)cc1Br", "target or system": "HepDES19", "assay": "cell growth or viability, MTS", "conditions": "72 h", "measurement": "CC50", "value": "31.5 µM"}
{"Structure (SMILES)": "CCCC[C@H](NC(=O)/C=C/c1ccccc1)C(=O)N[C@H](C=O)C[C@@H]1CCCNC1=O", "target or system": "A549", "assay": "cell growth or viability, MTT", "conditions": "24 h", "measurement": "CC50", "value": "> 100 µM"}
{"Structure (SMILES)": "CCOC(=O)C1=C(CN2CCC(C(=O)Nc3ccc(B4OC(C)(C)C(C)(C)O4)cc3)C2)NC(c2nccs2)=NC1c1ccc(F)cc1Br (stereo not drawn)", "target or system": "HepDES19", "assay": "cell growth or viability, MTS", "conditions": "72 h", "measurement": "CC50", "value": "26.2 µM"}
{"Structure (SMILES)": "CC(C)CC(=O)OC[C@H]1O[C@@](C#N)(c2ccc3c(N)ncnn23)[C@H](O)[C@@H]1O", "target or system": "MAOA (Homo sapiens, UniProt P21397)", "assay": "enzyme activity, inhibitor", "conditions": "20 µM", "measurement": "inhibition", "value": "-2%"}
{"note": "Excerpt of the above:"}
{"Structure (SMILES)": "N.N.[Cl][Pt][Cl]", "target or system": "Z-138", "assay": "cell growth or viability, ATP luminescence", "conditions": "72 h", "measurement": "IC50", "value": "0.76 µM"}
{"Structure (SMILES)": "OC(c1ccc(F)cc1)C(F)(F)CCN1CCC(O)(c2ccc(Cl)cc2)CC1 (racemic)", "target or system": "MDR1", "test system": "MDCK-MDR1", "conditions": "2 h", "measurement": "Papp B→A", "value": "7.84 ×10⁻⁶ cm/s"}
